Measured values pooled from the literature.
Parts stem from different laboratories: compare values within a part only.
Sequence of UniProt O43781 (whole entry, looked up): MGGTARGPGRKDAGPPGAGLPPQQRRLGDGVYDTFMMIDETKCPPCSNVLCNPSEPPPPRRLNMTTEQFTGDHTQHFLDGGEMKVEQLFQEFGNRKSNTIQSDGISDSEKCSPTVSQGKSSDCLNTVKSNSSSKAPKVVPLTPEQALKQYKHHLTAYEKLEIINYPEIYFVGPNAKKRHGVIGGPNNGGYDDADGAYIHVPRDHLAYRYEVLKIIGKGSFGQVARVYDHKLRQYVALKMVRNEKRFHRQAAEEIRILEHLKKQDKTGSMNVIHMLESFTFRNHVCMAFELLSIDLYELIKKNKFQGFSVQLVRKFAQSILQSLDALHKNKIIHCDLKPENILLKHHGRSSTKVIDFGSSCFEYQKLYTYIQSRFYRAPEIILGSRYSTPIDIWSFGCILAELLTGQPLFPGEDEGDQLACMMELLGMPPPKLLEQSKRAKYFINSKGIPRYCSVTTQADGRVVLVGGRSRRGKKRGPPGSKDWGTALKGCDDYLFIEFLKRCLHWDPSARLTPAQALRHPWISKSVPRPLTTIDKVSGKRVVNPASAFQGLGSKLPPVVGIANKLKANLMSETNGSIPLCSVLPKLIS
Sequence of UniProt Q9H3Y6 (whole entry, looked up): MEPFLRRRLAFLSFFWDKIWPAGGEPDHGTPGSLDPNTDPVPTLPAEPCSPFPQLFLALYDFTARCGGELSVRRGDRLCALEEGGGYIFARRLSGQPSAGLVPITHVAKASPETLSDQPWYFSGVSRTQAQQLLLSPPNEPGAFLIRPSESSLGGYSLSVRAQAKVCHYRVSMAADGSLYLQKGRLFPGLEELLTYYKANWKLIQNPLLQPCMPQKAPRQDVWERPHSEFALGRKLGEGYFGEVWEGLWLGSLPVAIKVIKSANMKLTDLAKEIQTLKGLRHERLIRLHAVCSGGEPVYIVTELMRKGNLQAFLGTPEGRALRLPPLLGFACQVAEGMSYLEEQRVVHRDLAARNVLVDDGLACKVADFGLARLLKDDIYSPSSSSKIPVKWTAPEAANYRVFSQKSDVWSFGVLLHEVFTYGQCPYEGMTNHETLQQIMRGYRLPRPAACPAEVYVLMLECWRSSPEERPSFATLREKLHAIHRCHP
Sequence of UniProt P22612 (whole entry, looked up): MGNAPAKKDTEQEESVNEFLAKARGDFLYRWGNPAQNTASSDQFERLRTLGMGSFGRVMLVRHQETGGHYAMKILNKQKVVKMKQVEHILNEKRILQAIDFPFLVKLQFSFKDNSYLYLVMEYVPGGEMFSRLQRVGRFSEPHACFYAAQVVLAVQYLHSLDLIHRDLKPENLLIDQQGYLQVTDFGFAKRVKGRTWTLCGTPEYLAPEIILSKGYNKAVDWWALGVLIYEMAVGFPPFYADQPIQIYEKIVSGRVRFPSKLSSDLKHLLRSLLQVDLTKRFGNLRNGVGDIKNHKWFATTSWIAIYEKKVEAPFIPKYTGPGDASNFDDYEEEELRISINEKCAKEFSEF
Sequence of UniProt O75582 (whole entry, looked up): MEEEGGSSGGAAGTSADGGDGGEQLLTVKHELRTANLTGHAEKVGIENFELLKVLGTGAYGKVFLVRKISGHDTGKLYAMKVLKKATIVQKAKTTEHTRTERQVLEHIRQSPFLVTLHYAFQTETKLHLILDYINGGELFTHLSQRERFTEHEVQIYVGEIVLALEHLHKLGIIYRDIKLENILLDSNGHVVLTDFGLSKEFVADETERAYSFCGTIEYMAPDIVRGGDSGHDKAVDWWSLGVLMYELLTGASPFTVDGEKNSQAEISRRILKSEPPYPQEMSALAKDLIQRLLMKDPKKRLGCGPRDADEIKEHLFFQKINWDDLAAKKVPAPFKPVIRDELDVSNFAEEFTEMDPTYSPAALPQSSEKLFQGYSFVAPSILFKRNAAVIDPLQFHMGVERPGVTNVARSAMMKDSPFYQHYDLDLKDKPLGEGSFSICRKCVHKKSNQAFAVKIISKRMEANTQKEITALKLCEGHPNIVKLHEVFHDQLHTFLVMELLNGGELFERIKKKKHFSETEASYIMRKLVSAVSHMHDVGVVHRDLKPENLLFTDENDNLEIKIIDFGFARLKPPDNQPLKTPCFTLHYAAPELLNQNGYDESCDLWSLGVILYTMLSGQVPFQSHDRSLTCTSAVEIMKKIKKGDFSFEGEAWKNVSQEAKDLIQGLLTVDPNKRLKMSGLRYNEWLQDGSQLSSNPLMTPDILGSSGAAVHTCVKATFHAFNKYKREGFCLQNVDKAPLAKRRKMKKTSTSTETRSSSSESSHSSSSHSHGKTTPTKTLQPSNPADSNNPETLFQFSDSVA
Sequence of UniProt Q16644 (whole entry, looked up): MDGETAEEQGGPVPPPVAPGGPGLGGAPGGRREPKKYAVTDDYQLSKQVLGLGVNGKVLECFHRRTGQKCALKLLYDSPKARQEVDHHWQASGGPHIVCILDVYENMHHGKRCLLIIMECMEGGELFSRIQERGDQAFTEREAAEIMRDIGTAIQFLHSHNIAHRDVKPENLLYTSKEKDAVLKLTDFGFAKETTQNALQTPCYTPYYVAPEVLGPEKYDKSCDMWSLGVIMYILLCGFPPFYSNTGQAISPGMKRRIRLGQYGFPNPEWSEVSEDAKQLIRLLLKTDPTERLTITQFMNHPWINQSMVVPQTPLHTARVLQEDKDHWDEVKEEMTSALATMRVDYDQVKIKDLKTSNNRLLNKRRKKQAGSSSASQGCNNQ
Sequence of UniProt Q9BYP7 (whole entry, looked up): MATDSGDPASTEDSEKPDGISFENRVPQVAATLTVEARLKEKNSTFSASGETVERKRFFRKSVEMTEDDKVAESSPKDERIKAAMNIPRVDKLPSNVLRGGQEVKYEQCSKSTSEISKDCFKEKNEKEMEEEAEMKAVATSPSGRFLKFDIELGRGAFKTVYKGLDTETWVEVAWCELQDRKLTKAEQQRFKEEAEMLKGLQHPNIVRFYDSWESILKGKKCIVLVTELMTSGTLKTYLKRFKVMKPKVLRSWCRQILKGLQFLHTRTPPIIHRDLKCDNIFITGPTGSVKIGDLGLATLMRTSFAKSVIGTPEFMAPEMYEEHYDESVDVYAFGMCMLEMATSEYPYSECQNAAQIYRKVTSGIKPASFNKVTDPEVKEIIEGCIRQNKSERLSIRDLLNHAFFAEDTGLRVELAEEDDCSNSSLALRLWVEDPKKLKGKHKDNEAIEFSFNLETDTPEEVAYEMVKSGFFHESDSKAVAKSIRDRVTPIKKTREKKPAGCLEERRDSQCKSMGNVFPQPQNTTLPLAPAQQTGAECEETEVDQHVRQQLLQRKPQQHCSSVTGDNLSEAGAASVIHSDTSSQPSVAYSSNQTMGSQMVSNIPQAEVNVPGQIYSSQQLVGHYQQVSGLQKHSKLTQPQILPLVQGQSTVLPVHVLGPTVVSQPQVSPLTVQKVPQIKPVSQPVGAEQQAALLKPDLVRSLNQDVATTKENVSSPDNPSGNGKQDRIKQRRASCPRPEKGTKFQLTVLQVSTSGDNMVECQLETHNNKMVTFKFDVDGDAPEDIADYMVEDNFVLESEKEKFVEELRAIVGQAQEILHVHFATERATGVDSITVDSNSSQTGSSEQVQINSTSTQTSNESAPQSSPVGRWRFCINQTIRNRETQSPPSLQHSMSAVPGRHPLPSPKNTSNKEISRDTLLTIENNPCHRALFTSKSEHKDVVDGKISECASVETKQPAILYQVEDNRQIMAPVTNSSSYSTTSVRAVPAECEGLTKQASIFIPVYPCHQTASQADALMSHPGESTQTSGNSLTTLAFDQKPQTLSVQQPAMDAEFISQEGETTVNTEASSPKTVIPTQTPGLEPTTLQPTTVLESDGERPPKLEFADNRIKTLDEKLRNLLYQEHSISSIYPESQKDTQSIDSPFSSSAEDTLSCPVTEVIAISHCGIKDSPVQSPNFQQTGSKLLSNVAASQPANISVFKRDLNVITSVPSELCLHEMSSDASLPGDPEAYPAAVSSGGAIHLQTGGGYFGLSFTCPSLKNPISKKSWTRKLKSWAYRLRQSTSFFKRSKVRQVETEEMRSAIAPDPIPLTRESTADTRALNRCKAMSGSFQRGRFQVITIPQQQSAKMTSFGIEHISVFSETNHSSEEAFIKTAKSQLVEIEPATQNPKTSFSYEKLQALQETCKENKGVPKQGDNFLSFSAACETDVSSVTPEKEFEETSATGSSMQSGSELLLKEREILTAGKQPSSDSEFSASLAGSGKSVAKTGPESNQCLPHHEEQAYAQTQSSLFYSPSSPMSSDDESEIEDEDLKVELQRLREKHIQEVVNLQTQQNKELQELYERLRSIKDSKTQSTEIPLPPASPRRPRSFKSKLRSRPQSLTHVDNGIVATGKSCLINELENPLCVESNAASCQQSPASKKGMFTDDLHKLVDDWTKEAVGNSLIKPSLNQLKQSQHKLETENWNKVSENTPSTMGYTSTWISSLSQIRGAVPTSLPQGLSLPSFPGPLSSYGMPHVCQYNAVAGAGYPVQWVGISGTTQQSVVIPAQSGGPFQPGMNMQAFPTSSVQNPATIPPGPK
Sequence of UniProt Q13554 (whole entry, looked up): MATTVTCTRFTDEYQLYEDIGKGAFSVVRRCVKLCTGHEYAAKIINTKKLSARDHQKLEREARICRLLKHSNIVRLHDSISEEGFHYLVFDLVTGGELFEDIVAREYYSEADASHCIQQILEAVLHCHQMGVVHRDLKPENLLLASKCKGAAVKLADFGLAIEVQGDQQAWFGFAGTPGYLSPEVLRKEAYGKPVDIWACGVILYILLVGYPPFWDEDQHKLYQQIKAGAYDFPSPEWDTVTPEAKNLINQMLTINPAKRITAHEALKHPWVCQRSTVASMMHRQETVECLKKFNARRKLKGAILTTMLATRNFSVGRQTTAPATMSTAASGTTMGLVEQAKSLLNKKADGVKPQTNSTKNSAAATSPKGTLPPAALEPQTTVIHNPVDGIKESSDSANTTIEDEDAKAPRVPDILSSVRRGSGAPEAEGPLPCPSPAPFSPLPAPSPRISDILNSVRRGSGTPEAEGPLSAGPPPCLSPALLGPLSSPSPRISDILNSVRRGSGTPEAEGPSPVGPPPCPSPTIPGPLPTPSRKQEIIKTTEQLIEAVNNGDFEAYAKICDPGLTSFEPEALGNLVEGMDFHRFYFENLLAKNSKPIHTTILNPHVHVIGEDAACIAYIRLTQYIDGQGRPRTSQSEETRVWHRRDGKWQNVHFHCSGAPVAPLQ

Series 1
Compound: COC[C@H]1OC(=O)c2coc3c2[C@@]1(C)C1=C(C3=O)[C@@H]2CCC(=O)[C@@]2(C)C[C@H]1OC(C)=O
Read-out: enzyme activity
Mode: inhibitor
Concentration: 0.5 µM
Relative to: control
| target | remaining activity |
| --- | --- |
| Testis-specific serine/threonine-protein kinase 2 (TSSK2, Homo sapiens, UniProt Q96PF2) | 96.9% |
| MAP kinase-activated protein kinase 3 (MAPKAPK3, Homo sapiens, UniProt Q16644) | 96.5% |
| cAMP-dependent protein kinase catalytic subunit gamma (PRKACG, Homo sapiens, UniProt P22612) | 96.1% |
| Dual specificity tyrosine-phosphorylation-regulated kinase 3 (DYRK3, Homo sapiens, UniProt O43781) | 92.6% |
| Calcium/calmodulin-dependent protein kinase type II subunit beta (CAMK2B, Homo sapiens, UniProt Q13554) | 95.7% |
| Ribosomal protein S6 kinase alpha-5 (RPS6KA5, Homo sapiens, UniProt O75582) | 92.2% |
| Serine/threonine-protein kinase WNK3 (WNK3, Homo sapiens, UniProt Q9BYP7) | 99.5% |
| Tyrosine-protein kinase ABL1 (ABL1, Homo sapiens, UniProt P00519) | 101% |
| Ephrin type-A receptor 4 (EPHA4, Homo sapiens, UniProt P54764) | 96% |
| Tyrosine-protein kinase Srms (SRMS, Homo sapiens, UniProt Q9H3Y6) | 103% |

Series 2
Target: HLA class I histocompatibility antigen, A alpha chain, allele A*80:01 (Homo sapiens, UniProt P04439)
Read-out: peptide-MHC binding
Form: peptide
Direction: direction not given
| Sequence | z-score of log IC50 |
| --- | --- |
| FVDVGVSAL | 0.38 |
| FPIPTEVVA | 0.38 |
| FQAGWEDPT | 0.38 |
| FPLWNTEKI | 0.38 |
| DGAEGINPY | 0.38 |
| AALEGLSGF | 0.38 |
| GLYLYRFHV | 0.38 |
| GFAIPIILK | 0.38 |

Single results of other studies
Concentration: 10 µM
| Structure (SMILES) | tested on | test | conditions | scale | quantity | result |
| --- | --- | --- | --- | --- | --- | --- |
| NP(N)(=O)NC(=O)c1ccc(F)cc1 | mouse MPNST tumor cells | high-content immunofluorescence imaging, item: nuclear SOX9 | 12 h, mean of 2 replicates | relative to: DMSO control, higher = more nuclear SOX9 | nuclear SOX9 intensity | 101 % of DMSO |
| CN1CC[C@@]23CCCC[C@@H]2[C@@H]1Cc1ccc(O)cc13.O=C(O)C(O)C(O)C(=O)O | Sarcocystis neurona | parasite growth | secondary screen |  | inhibition | -38.9% |

For quick reference, copied from above (series 1):
| target | remaining activity |
| --- | --- |
| Ribosomal protein S6 kinase alpha-5 (RPS6KA5, Homo sapiens, UniProt O75582) | 92.2% |
| Serine/threonine-protein kinase WNK3 (WNK3, Homo sapiens, UniProt Q9BYP7) | 99.5% |
| Dual specificity tyrosine-phosphorylation-regulated kinase 3 (DYRK3, Homo sapiens, UniProt O43781) | 92.6% |
